# Published values pooled from the literature.
# Each line is one published result; not all experiments were run side by side. Numbers after ± are the reported error.
# Enoyl-[acyl-carrier-protein] reductase [NADPH] FabI: Enoyl-[acyl-carrier-protein] reductase [NADPH] FabI (Staphylococcus aureus, UniProt Q6GI75)
# Protein farnesyltransferase: Protein farnesyltransferase (Homo sapiens, UniProt P49354+P49356)
# GPR17: Uracil nucleotide/cysteinyl leukotriene receptor (GPR17, Homo sapiens, UniProt Q13304)
# SLC10A1: Hepatic sodium/bile acid cotransporter (SLC10A1, Homo sapiens, UniProt Q14973)
# CXCR4: C-X-C chemokine receptor type 4 (CXCR4, Homo sapiens, UniProt P61073)
# UGT1A9: UDP-glucuronosyltransferase 1A9 (UGT1A9, Homo sapiens, UniProt O60656)
# T1: RNA aptamer optimized 10-59; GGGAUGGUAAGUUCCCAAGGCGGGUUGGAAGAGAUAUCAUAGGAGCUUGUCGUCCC
# T2: RNA aptamer del U24; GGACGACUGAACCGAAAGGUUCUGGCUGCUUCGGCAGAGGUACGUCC
Molecule,target,test,system,conditions,scale,measurement,value
Nc1nc2c(ncn2[C@@H]2O[C@H](COP(=O)(O)OP(=O)(O)OP(=O)(O)O)[C@@H](O)[C@H]2O)c(=O)[nH]1,"T1, RNA aptamer optimized 10-59",ultrafiltration,,"apparent, with: GTP",,Kd,250 nM
N#Cc1ccccc1Oc1ccc(Cl)cc1O,Enoyl-[acyl-carrier-protein] reductase [NADPH] FabI,"enzyme activity, inhibitor, progress curve kinetics, measured: NADPH",,,,Ki,0.06 ± 0.01 nM
CKVL,Protein farnesyltransferase,"enzyme activity, substrate, fluorimetric",peptide,"3 µM, 30 min, with: 9 µM farnesyl diphosphate",baseline: dansyl-GCVLS (set to 1.0),relative fluorescence increase,< 0.05
CNc1ncnc2c1ncn2[C@H]1C[C@H](OP(=O)(O)O)[C@@H](COP(=O)(O)O)O1.N.N,GPR17,frontal affinity chromatography-MS,immobilized on IAM column,"1 µM, compound mixture",,breakthrough time,7.1 min
CC(C)CC[C@@H](O)[C@](C)(O)[C@H]1CC[C@@]2(O)C3=CC(=O)[C@@H]4C[C@@H](O)[C@@H](O)C[C@]4(C)C3=CC[C@]12C,"Ecdysone receptor, with ultraspiracle (EcR, Drosophila melanogaster, UniProt P34021)","photoaffinity ligand, [3H]ponasterone A binding",,"100 nM, UV irradiation 350 nm, 20 min",,covalent blocking efficiency,> 70%
Cc1ncsc1-c1ccc(CNC(=O)[C@@H]2C[C@@H](O)CN2C(=O)[C@@H](NC(=O)CCCCCCCCCCNC(=O)O[C@H]2C[C@@H](C)C=C3C=C[C@H](C)[C@H](CC[C@@H]4C[C@@H](O)CC(=O)O4)[C@H]32)C(C)(C)C)cc1,"HMGCR (Homo sapiens, UniProt P04035)",Western blot,HepG2,"1 µM, 16 h",baseline: untreated control,remaining protein level,42%
CN1CCC[C@@H]1Cc1c[nH]c2ccc(CCS(=O)(=O)c3ccccc3)cc12,SLC10A1,inhibitor,HEK293 expressing NTCP,"100 µM, 5 min, with: taurocholate 10 µM",baseline: no compound,taurocholate uptake,104 ± 8%
O=C(CCn1c2ccccc2c2ccc(Cl)cc21)N(c1ccc(F)cc1)c1ccc(F)cc1,"Proteasome subunit alpha type-2/Proteasome subunit alpha type-6, 20S proteasome (Homo sapiens, UniProt P25787+P60900)","proteolysis, activator, fluorogenic peptide",purified 20S proteasome,"up to 30 µM, with: Suc-LLVY-AMC, Z-LLE-AMC, Boc-LRR-AMC",baseline: vehicle,maximum fold increase,4.5
CC(=O)Oc1ccccc1C(=O)O,"CDK1 (Homo sapiens, UniProt P06493)","acetylation, anti-acetyl-lysine immunoblot",,12 h,,threshold concentration,0.25 mM
CCOC(=O)[C@H](CCc1ccccc1)N[C@@H](C)C(=O)N1CCC[C@H]1C(=O)O,SLC10A1,inhibitor,HEK293 expressing NTCP,"100 µM, 5 min, with: taurocholate 10 µM",baseline: no compound,taurocholate uptake,111 ± 4%
C[N+](C)(C)CCOC(N)=O,Gs/olf proteins,[3H]GDP binding SPA,CHO cell membranes,"10 µM, with: [3H]GDP 500 nM",baseline: control,GDP dissociation rate increase,1.8 fold
O=S(=O)(O)C1CCNCC1,"GABA-A receptor; alpha-1/beta-2/gamma-2 (Homo sapiens, UniProt P14867+P18507+P47870)","ion current, positive allosteric modulator",Ltk,with: zuranolone 200 nM,baseline: maximal GABA current,Emax,50.5%
CN(Cc1ccc(CN(C)Cc2cccc(Cl)c2)cc1)Cc1cccc(Cl)c1,CXCR4,"binding, competition binding",MDA-MB-231,"semi-quantitative screen, with: biotinylated TN14003",,lowest effective concentration,1000 nM
N=C(N)NCCC[C@@H]1NC(=O)CNC(=O)[C@H](CC(N)=O)NC(=O)[C@@H]2CCCN2C(=O)[C@@H](N)CSSC[C@@H](C(=O)O)NC1=O,"Aminopeptidase N (Rattus norvegicus, UniProt P15684)","enzyme activity, inhibitor, absorbance",,"50 µM, pH 7.8, with preincubation",,remaining activity,~11%
CCOc1nc2cccc(C(=O)O)c2n1Cc1ccc(-c2ccccc2-c2nnn[nH]2)cc1,SLC10A1,inhibitor,HEK293 expressing NTCP,"100 µM, 5 min, with: taurocholate 10 µM",baseline: no compound,taurocholate uptake,68 ± 7.2%
Oc1cc(Cl)ccc1Oc1ccccc1,Enoyl-[acyl-carrier-protein] reductase [NADPH] FabI,"enzyme activity, inhibitor, progress curve kinetics",,,,dissociation rate constant,1.7 ± 0.3 h⁻¹
C[C@H]1O[C@H](O[C@H]2[C@H](O)[C@@H](O)[C@@H](O[C@H]3[C@H](O)[C@@H](O)C(O)O[C@@H]3CO)O[C@@H]2CO)[C@H](O)[C@@H](O)[C@@H]1N[C@H]1C=C(CO)[C@@H](O)[C@H](O)[C@H]1O (stereo partly drawn),SLC10A1,inhibitor,HEK293 expressing NTCP,"100 µM, 5 min, with: taurocholate 10 µM",baseline: no compound,taurocholate uptake,99.7 ± 4.9%
Cc1ccc(S(=O)(=O)NCc2ccc(CNC(=O)c3ccc(F)cc3)cc2)cc1,CXCR4,"binding, competitor, rhodamine fluorescence",MDA-MB-231,"semi-quantitative screen, with: biotinylated TN14003",,lowest effective concentration,1 nM
N#Cc1c(O)c2c(-c3ccc(-c4ccccc4O)cc3)csc2[nH]c1=O,UGT1A9,substrate,,"pH 7.4, 37 °C",,Vmax,10.8 pmol/mg/min
CCN(CC)CCNC(=O)c1ccc(N)cc1,SLC10A1,inhibitor,HEK293 expressing NTCP,"100 µM, 5 min, with: taurocholate 10 µM",baseline: no compound,taurocholate uptake,84.8 ± 6.7%
Oc1c(C(Nc2ccccc2)c2c(F)cc(Br)cc2F)ccc2ccccc12 (stereo not drawn),"CAAX prenyl protease 2 (Homo sapiens, UniProt Q9Y256)","enzyme activity, inhibitor",,10 µM,,remaining activity,< 40%
CSLL,Protein farnesyltransferase,"enzyme activity, substrate, fluorimetric",peptide,"3 µM, 30 min, with: 9 µM farnesyl diphosphate",baseline: dansyl-GCVLS (set to 1.0),relative fluorescence increase,0
OCc1ccccc1,Chilo suppressalis CSP2,"binding, competitive fluorescence displacement",,"30 µM, pH 7.4",,fluorescence intensity,94.37 ± 0.12%
CN(C)c1ccc2c(-c3ccc(C(=O)O)cc3C(=O)[O-])c3ccc(=[N+](C)C)cc-3oc2c1,"T2, RNA aptamer del U24",fluorescence quenching titration,,"pH 7.5, 25 °C, NaCl 15 mM, no Mg2+",,Kd,1170 nM
CNc1nc(Cl)nc2c1ncn2[C@@H]1O[C@H](COP(=O)(O)OP(=O)(O)OP(=O)(O)O)[C@@H](O)[C@H]1O.N.N.N.N,GPR17,frontal affinity chromatography-MS,immobilized on IAM column,"1 µM, compound mixture",,breakthrough time,9.22 min
CCC/C=C/COC(C)=O,"chemosensory protein 1 (Chilo suppressalis, UniProt V9PY22)","binding, competitive ligand, fluorescence competitive binding",,"highest concentration tested, pH 7.4, protein 2 µM, with: 1-NPN 2 µM",baseline: no ligand,remaining 1-NPN fluorescence,83.1 ± 0.86%
CC(C)C[C@H](NC(=O)CNC(=O)c1cc(Cl)ccc1Cl)B(O)O,"PSMB5 (Homo sapiens, UniProt P28074)",20S proteasome activity,"human, whole blood","iv, 0.5 mg/m^2, day 1",,AUE(0-168 h),888 % inhibition h
CCCCCCCCCCCCCC(C)=O,Chilo suppressalis CSP2,"binding, competitive fluorescence displacement",,"30 µM, pH 7.4",,fluorescence intensity,49.4 ± 3.91%
CCVL,Protein farnesyltransferase,"enzyme activity, substrate, fluorimetric",peptide,"3 µM, 30 min, with: 9 µM farnesyl diphosphate",baseline: dansyl-GCVLS (set to 1.0),relative fluorescence increase,0.11
O=C(O)[C@H]1O[C@@H](O[C@H]2c3cc4ccc5cccc6c7ccccc7c(c3C=C[C@@H]2O)c4c56)[C@H](O)[C@@H](O)[C@@H]1O (relative stereo),"UGT1A10 (Homo sapiens, UniProt Q9HAW8)","glucuronidation, substrate",UGT-expressing HEK293 homogenate,normalized to UGT expression,,kcat,0.005 ± 0.0005 s⁻¹
Oc1ccc(N=Nc2ccccc2)cc1,UGT1A9,substrate,,"pH 7.4, 37 °C",,Vmax,1160 pmol/mg/min
CC[C@H](C)[C@H](NC(=O)[C@H](C)NC(=O)[C@H](CC(=O)O)NC(=O)[C@H](C)NC(=O)[C@H](CC(C)C)NC(=O)[C@@H](NC(=O)[C@@H](NC(=O)[C@H](CC(C)C)NC(=O)[C@H](CCCNC(=N)N)NC(=O)[C@H](Cc1c[nH]cn1)NC(=O)[C@@H](NC(=O)[C@H](CCCNC(=N)N)NC(=O)[C@@H]1CCCN1C(=O)[C@@H](NC(=O)[C@H](CCC(N)=O)NC(=O)CN)C(C)C)[C@@H](C)O)[C@@H](C)CC)[C@@H](C)O)C(=O)N[C@@H](CS)C(=O)N[C@@H](CCC(N)=O)C(=O)N[C@H](C(=O)N[C@H](C(=O)N[C@H](C(=O)N[C@@H](CCC(N)=O)C(=O)N[C@@H](CC(=O)O)C(=O)N[C@@H](Cc1ccccc1)C(=O)N[C@@H](C)C(=O)N[C@@H](CCCNC(=N)N)C(=O)O)[C@@H](C)O)[C@@H](C)CC)[C@@H](C)CC,"NR1D1 (Homo sapiens, UniProt P20393)","NCoR peptide binding, competitor, TR-FRET",,"1 h, with: labelled NCoR 2040-2065 peptide",baseline: mutant over wild-type peptide,IC50 fold change,1.2
CN(Cc1cccc(Cl)c1)Cc1cccc(CN(C)Cc2cccc(Cl)c2)n1,CXCR4,"binding, competition binding",MDA-MB-231,"semi-quantitative screen, with: biotinylated TN14003",,lowest effective concentration,10 nM
